{"data": "Results of several laboratories", "note": "Parts stem from different laboratories: compare values within a part only. Several values in a cell are separate wells, animals, samples, runs or records.", "chain of UniProt Q9UQM7 (whole entry, looked up)": "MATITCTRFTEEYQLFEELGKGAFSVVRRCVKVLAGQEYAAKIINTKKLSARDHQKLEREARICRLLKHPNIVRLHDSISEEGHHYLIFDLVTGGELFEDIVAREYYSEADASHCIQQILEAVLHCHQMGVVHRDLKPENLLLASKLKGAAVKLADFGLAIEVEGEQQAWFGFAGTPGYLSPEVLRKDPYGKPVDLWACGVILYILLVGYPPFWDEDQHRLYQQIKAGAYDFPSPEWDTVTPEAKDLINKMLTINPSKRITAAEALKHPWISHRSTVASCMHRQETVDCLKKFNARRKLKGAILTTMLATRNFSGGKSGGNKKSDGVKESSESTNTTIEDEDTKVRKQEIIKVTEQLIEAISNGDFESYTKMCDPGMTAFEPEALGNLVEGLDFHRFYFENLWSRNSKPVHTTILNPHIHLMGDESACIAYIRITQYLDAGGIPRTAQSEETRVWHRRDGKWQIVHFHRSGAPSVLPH", "chain of UniProt Q01959 (whole entry, looked up)": "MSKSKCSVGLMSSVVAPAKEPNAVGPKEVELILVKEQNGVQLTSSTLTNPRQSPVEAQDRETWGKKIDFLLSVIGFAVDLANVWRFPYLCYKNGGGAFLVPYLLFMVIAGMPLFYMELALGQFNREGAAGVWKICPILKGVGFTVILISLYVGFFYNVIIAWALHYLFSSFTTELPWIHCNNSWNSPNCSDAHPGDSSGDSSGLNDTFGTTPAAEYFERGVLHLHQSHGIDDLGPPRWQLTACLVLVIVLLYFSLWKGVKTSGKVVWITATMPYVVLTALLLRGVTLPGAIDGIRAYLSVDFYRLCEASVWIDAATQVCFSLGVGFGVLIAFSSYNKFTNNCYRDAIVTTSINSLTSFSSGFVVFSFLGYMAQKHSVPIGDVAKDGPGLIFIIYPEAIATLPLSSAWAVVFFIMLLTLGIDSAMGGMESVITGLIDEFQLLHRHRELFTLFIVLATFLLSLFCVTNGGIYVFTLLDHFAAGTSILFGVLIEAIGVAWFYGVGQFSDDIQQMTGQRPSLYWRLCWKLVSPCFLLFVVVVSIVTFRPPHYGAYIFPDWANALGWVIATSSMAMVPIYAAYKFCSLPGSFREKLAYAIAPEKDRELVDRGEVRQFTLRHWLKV", "chain of UniProt P35372 (whole entry, looked up)": "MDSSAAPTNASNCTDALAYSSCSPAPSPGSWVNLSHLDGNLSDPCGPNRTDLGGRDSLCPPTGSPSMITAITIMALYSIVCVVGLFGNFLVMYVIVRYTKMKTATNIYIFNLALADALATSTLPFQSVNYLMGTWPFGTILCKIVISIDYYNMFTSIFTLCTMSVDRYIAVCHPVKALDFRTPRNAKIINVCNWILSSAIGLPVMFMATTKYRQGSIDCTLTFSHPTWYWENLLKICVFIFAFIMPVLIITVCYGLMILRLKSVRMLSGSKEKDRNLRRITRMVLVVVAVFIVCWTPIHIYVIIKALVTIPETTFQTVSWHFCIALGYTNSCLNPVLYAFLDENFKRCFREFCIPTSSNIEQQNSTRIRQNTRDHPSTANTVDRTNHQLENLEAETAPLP", "chain of UniProt P41145 (whole entry, looked up)": "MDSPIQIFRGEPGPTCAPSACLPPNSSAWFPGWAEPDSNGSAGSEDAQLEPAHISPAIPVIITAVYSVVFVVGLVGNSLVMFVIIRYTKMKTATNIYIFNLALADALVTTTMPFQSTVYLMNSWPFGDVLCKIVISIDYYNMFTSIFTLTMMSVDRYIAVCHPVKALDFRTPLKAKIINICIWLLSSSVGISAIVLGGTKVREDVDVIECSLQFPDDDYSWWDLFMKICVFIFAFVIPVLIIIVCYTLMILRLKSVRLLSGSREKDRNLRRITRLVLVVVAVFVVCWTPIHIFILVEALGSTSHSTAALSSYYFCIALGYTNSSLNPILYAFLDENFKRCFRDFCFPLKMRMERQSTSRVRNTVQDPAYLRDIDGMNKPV", "chain of UniProt P23975 (whole entry, looked up)": "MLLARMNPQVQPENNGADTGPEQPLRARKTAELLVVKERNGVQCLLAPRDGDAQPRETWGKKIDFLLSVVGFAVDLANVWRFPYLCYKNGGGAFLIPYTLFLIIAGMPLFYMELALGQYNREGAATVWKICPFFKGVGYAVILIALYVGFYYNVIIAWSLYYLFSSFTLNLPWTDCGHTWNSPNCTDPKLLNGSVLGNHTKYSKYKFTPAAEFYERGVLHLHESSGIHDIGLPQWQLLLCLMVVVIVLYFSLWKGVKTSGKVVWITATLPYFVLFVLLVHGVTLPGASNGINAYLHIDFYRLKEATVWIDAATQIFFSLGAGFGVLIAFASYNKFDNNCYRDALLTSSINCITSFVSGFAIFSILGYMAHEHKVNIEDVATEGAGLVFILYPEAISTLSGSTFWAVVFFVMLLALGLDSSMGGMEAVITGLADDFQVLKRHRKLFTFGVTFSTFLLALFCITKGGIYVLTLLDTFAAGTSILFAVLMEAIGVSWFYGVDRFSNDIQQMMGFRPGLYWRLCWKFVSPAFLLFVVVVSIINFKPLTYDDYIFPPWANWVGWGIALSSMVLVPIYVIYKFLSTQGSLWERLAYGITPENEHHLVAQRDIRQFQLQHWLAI", "chain of UniProt P21918 (whole entry, looked up)": "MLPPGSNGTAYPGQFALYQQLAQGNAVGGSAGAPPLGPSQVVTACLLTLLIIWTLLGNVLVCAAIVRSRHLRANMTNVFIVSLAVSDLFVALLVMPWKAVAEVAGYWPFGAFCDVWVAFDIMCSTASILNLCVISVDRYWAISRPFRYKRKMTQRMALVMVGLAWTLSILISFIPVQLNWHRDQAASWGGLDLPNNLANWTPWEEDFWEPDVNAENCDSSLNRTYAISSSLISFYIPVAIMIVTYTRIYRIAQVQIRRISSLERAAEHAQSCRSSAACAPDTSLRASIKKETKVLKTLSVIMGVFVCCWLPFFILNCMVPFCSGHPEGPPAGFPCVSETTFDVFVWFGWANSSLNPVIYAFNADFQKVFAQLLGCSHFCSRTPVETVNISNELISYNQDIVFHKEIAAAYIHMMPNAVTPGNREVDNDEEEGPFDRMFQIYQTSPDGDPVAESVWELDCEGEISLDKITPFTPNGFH"}
{"data": "Series 1", "Structure (SMILES)": "CNC(=O)c1ccc(-c2cnn3ccc(C(=O)N(C)c4ccc(Cl)c(C(=O)OC)c4)cc23)cc1", "organism": "Cryptosporidium parvum", "technique": "qPCR", "host": "IFN-γ knockout mouse", "medium": "faeces"}
{"conditions": "3 mg/kg, day 1 post treatment", "faecal oocyst shedding": "6.35 log oocysts/g faeces and 6.44 log oocysts/g faeces"}
{"conditions": "10 mg/kg, day 5 post treatment", "faecal oocyst shedding": "4.31 log oocysts/g faeces and 3.62 log oocysts/g faeces and 4.36 log oocysts/g faeces"}
{"conditions": "1 mg/kg, day 5 post treatment", "faecal oocyst shedding": "6.99 log oocysts/g faeces and 7.04 log oocysts/g faeces and 6.65 log oocysts/g faeces"}
{"data": "Series 2", "SMILES": "CCNC(=O)c1cc2c(N3CCOC[C@@H]3C)ccnc2[nH]1", "read-out": "ligand displacement", "technique": "radioligand", "concentration": "10 µM"}
{"target": "D(1B) dopamine receptor (DRD5, Homo sapiens, UniProt P21918)", "inhibition": "34.3%"}
{"target": "Mu-type opioid receptor (OPRM1, Homo sapiens, UniProt P35372)", "inhibition": "24.8%"}
{"target": "Sodium-dependent dopamine transporter (SLC6A3, Homo sapiens, UniProt Q01959)", "inhibition": "25.5%"}
{"target": "Sodium-dependent noradrenaline transporter (SLC6A2, Homo sapiens, UniProt P23975)", "inhibition": "40.2%"}
{"target": "Kappa-type opioid receptor (OPRK1, Homo sapiens, UniProt P41145)", "inhibition": "13.1%"}
{"data": "Single results of other studies"}
{"SMILES": "CC1(C)OC1COc1c2occc2cc2ccc(=O)oc12 (stereo not shown)", "tested on": "Calcium/calmodulin-dependent protein kinase type II subunit alpha (CAMK2A, Homo sapiens, UniProt Q9UQM7)", "test": "enzyme activity, inhibitor", "conditions": "10 µM", "quantity": "inhibition", "value": "-1%"}
{"SMILES": "O=C1CCC(N2Cc3c(ccc4c3OCC43CCN(Cc4ccccc4)CC3)C2=O)C(=O)N1 (stereo not shown)", "system": "ICR mouse, male, plasma", "conditions": "intravenous, 1.0 mg/kg", "quantity": "CL", "value": "40.3 mL/min/kg"}
{"note": "A few entries again (series 2):"}
{"target": "Sodium-dependent dopamine transporter (SLC6A3, Homo sapiens, UniProt Q01959)", "inhibition": "25.5%"}
